Results pooled from the literature.
Each line is one published result; not all experiments were run side by side. Several values in a cell are separate wells, animals, samples, runs or records.
Target: Serine/threonine-protein kinase Nek3 (NEK3, Homo sapiens, UniProt P51956)

| Structure (SMILES) | assay | system | conditions | how to read | measurement | value |
| --- | --- | --- | --- | --- | --- | --- |
| COc1ccc(C(=O)/C=C/c2ccccc2-c2c[nH]c3ccc(C#N)cc23)c(O)c1 | enzyme activity, inhibitor |  | 20 µM |  | inhibition | -1% |
| Nc1ncc(-c2cc(-c3cnn(CC(F)(F)F)c3)ncc2F)nc1C(=O)NC1CNCC(F)C1 (centres unmarked) | enzyme activity |  | 1 µM | relative to: DMSO control | remaining activity | 80% |
| NC(=O)C[C@H]1CCc2sc3ncnc(O[C@H]4CC[C@H](N5CCOCC5)CC4)c3c21 | enzyme activity, inhibitor |  | 10 µM |  | inhibition | -10% |
| CCN1CCN(Cc2ccc(C(=O)Nc3ccc(C)c(NCc4cnc5[nH]ccc5c4OC)c3)cc2C(F)(F)F)CC1 | binding, competition with immobilised ligand |  | 1 µM |  | remaining binding | 47% |
| COc1c(Cl)cccc1Nc1c(-c2ccncc2C#C[C@@]2(C)CCCN2C(=O)/C=C/CN(C)C)[nH]c2c1C(=O)NCC2 | binding, competition with immobilised ligand |  | 3 µM |  | remaining binding | 63% |
| Cc1nc2c(F)cc(-c3nc(Nc4ccc(CNC(=O)CCCCCCC(=O)NO)cc4)ncc3F)cc2n1C(C)C | enzyme activity, inhibitor |  | 1 µM |  | inhibition | 88% |
| O=C=[N][Ru-4]123([n]4c5ccc(O)cc5c5c6c(c7cc(F)c[n+]1c7c54)C(=O)NC6=O)[S+]1CC[S+]2CC[S+]3CC1 (centres unmarked) | enzyme activity |  | 100 nM, human enzyme, added: 10 µM ATP | relative to: untreated | remaining activity | 97% |
| COCC12C(=O)NC3C4(C(OC)CC1O)C1CC5(O)C(OC)C(O)C(OC(C)=O)(C1C5OC(=O)c1ccccc1)C3(O)C(OC)C24 (centres unmarked) | kinase activity, inhibitor, ProQinase kinase profiling |  | 25 µM | relative to: control | remaining activity | 118% and 114% |
| CN1C[C@@H](c2c[nH]c3cc(Br)ccc23)NC[C@@H]1c1c[nH]c2cc(Br)ccc12 | enzyme activity, inhibitor |  | 10 µM |  | remaining activity | 102% |
| CS(=O)(=O)Nc1cccc(-c2csc3cnc(Nc4ccc(N5CCN(CCCCCOc6cccc7c6C(=O)N(C6CCC(=O)NC6=O)C7=O)CC5)cc4)nc23)c1 (centres unmarked) | probe labelling, inhibitor, KiNativ chemoproteomics | MOLT-4 | 1 µM |  | inhibition | 57.9% |
| COc1ccc(NC(=O)Nc2ccc3c(c2)C(=O)N(C(C)CO)CC(C)C(CN(C)Cc2ccc4c(c2)OCO4)O3)cc1 (centres unmarked) | kinase activity, KinaseProfiler |  | 0.03 µM, species human | relative to: control | remaining activity | 105% |
| COc1cc(Nc2nccc(-c3cnn4nc(OC)ccc34)n2)cc(C(F)(F)F)c1 | binding, competition with immobilised ligand |  | 1 µM |  | remaining binding | 70% |
| CNC(=O)C[C@H](Cc1ccc(C#N)cc1)NC(=O)c1cc(-c2ccc(CN[C@H](C)c3ccc(C)cc3)o2)ccc1Cl | enzyme activity, inhibitor |  | 1 µM |  | activity vs control | 117% |
| CC(C)=CC1OC(C)(C)C2C=C3C(=O)C(Cl)=CC(O)C3C3C(O)C4OC4C(=O)C132 (centres unmarked) | cell-free assay, competition with immobilised ligand |  | 10 µM |  | remaining binding | 62% |
